Results of several laboratories.
Each numbered part is a random draw from the data of one study; scales do not carry over between parts.
Chain of UniProt P51617 (whole entry, looked up): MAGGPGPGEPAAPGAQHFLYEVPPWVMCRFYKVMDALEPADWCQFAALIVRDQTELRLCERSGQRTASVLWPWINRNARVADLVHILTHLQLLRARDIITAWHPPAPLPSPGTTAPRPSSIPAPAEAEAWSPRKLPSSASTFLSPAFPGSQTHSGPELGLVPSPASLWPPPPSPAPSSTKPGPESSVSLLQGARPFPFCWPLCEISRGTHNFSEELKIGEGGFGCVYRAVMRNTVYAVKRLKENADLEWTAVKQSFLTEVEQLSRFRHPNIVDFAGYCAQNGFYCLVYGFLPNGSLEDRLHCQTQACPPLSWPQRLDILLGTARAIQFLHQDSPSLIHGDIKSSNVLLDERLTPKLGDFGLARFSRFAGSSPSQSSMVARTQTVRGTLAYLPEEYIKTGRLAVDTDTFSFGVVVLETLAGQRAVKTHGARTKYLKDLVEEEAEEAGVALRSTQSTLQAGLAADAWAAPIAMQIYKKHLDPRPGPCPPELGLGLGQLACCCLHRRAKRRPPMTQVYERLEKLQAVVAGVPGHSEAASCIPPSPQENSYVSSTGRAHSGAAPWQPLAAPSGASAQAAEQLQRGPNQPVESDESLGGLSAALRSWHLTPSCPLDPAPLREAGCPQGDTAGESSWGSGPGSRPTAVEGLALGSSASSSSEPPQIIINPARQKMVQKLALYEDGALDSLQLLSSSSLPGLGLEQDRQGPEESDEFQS
Chain of UniProt Q9BXA7 (whole entry, looked up): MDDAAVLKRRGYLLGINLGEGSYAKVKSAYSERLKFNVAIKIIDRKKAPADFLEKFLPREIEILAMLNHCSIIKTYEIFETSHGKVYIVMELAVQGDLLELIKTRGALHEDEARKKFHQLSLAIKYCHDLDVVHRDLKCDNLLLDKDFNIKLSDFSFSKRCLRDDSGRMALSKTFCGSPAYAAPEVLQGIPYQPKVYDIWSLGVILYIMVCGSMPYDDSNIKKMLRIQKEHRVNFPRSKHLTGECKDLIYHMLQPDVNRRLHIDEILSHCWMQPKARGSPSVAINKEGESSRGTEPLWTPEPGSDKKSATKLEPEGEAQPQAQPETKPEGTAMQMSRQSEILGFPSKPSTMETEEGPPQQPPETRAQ
Chain of UniProt Q13164 (whole entry, looked up): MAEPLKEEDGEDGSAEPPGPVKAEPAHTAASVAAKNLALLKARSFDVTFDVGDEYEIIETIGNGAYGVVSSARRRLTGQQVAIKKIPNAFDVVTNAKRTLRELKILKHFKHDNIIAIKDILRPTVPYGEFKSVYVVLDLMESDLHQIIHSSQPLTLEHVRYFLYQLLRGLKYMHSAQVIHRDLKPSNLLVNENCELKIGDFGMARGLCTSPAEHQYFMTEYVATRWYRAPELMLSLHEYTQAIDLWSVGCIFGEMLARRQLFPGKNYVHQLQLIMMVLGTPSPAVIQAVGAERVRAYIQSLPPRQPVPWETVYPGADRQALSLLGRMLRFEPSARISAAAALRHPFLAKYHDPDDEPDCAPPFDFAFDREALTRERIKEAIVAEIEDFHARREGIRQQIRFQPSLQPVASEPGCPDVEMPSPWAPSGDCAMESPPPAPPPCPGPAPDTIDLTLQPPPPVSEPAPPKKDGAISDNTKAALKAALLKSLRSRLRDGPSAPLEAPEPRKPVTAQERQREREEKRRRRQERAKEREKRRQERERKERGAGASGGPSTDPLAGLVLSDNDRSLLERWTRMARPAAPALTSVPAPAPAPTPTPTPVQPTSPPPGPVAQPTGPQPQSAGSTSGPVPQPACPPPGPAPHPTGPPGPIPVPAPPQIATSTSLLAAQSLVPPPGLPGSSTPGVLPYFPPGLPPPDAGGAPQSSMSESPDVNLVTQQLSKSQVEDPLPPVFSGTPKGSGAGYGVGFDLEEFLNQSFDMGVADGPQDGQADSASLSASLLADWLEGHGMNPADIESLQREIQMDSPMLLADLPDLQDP
Chain of UniProt Q32MK0 (whole entry, looked up): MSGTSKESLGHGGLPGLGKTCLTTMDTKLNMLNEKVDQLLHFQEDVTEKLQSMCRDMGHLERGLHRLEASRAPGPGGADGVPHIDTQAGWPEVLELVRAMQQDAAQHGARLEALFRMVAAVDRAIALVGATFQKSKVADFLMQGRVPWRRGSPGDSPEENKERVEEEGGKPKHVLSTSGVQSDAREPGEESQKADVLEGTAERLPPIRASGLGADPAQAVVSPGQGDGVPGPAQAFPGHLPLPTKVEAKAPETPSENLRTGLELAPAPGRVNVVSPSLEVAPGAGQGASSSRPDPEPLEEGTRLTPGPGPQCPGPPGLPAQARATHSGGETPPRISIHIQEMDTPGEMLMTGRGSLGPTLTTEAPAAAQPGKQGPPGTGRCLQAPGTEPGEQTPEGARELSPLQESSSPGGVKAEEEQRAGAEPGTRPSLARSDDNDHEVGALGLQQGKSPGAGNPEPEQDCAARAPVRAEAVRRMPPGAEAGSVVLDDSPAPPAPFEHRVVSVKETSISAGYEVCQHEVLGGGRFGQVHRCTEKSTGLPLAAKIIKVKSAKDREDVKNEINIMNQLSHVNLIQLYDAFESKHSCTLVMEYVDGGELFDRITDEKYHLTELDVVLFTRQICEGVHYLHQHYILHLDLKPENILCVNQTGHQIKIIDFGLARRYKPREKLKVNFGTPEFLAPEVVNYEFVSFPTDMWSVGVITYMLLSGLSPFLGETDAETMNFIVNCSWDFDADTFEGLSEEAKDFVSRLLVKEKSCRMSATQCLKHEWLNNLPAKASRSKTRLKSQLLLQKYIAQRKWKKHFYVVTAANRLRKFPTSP
Chain of UniProt Q8WXR4 (whole entry, looked up): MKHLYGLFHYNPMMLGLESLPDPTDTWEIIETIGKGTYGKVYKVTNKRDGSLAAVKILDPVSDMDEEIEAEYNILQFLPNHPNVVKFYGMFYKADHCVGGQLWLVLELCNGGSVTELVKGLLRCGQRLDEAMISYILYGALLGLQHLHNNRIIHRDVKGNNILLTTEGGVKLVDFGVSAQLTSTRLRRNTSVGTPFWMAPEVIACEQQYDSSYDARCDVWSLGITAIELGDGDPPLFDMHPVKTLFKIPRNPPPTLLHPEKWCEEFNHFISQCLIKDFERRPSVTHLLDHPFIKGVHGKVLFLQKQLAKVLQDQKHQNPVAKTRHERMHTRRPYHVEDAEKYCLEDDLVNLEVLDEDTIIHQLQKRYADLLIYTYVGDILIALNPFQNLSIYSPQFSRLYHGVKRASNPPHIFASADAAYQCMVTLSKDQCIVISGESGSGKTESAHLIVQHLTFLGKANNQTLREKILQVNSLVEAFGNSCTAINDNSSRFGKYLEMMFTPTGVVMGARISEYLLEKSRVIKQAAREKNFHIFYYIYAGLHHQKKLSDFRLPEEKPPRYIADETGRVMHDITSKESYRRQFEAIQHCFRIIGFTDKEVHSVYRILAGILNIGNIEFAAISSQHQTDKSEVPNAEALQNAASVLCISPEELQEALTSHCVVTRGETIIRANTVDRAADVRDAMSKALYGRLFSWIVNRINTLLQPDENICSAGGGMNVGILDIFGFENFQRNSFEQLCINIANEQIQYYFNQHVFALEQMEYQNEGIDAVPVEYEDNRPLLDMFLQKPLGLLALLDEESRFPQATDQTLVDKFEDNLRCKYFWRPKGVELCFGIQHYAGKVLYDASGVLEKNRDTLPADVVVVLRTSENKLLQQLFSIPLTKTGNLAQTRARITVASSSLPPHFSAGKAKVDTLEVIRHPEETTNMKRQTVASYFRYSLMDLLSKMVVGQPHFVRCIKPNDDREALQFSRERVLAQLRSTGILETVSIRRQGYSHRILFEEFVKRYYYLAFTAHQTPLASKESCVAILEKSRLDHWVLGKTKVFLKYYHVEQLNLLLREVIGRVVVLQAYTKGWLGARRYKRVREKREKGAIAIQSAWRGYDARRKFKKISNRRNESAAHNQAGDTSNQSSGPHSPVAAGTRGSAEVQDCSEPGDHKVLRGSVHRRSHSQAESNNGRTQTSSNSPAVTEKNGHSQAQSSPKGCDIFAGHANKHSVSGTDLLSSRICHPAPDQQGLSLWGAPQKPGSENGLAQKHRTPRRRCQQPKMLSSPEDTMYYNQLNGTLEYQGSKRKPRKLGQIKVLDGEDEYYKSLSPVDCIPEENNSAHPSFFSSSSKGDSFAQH
Chain of UniProt Q8NI60 (whole entry, looked up): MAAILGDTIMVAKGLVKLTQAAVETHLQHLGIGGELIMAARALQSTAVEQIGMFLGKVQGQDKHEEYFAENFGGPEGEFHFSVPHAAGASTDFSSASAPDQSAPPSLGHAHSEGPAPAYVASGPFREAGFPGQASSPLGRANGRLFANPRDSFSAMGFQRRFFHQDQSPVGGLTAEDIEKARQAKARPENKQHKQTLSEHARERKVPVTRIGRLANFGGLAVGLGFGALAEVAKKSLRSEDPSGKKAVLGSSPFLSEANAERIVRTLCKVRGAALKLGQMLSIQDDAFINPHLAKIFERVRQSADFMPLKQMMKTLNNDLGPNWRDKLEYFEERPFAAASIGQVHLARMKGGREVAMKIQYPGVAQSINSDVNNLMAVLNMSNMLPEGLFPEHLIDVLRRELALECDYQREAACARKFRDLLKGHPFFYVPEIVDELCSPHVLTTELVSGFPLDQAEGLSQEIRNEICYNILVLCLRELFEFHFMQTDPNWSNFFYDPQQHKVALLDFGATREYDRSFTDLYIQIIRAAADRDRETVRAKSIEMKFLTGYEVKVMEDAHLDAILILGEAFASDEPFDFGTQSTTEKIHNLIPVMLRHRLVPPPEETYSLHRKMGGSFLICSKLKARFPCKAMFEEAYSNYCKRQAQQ

Series 1 — action: inhibitor
Compound: Cc1nc(Nc2ncc(C(=O)Nc3c(C)cccc3Cl)s2)cc(N2CCN(CCO)CC2)n1
| target | setting | inhibition [%] |
| --- | --- | --- |
| Phosphatidylinositol 4-phosphate 3-kinase C2 domain-containing subunit beta (PIK3C2B, Homo sapiens, UniProt O00750) | 10 µM | < 50 |
| Myosin light chain kinase (MYLK3, Homo sapiens, UniProt Q32MK0) | 1 µM | < 50 |
| MAP kinase-activated protein kinase 2 (MAPKAPK2, Homo sapiens, UniProt P49137) | 10 µM | < 50 |
| Phosphatidylinositol 5-phosphate 4-kinase type-2 beta (PIP4K2B, Homo sapiens, UniProt P78356) | 10 µM | < 50 |
| Protein-tyrosine kinase 2-beta (PTK2B, Homo sapiens, UniProt Q14289) | 10 µM | < 50 |
| Myosin-IIIb (MYO3B, Homo sapiens, UniProt Q8WXR4) | 10 µM | < 50 |
| cAMP-dependent protein kinase catalytic subunit alpha (PRKACA, Homo sapiens, UniProt P17612) | 10 µM | < 50 |
| Fibroblast growth factor receptor 4 (FGFR4, Homo sapiens, UniProt P22455) | 10 µM | < 50 |
| Atypical kinase COQ8A, mitochondrial (COQ8A, Homo sapiens, UniProt Q8NI60) | 10 µM | 100 |
| Serine/threonine-protein kinase 24 (STK24, Homo sapiens, UniProt Q9Y6E0) | 10 µM | 66 |
| RAC-gamma serine/threonine-protein kinase (AKT3, Homo sapiens, UniProt Q9Y243) | 10 µM | < 50 |
| Protein kinase C delta type (PRKCD, Homo sapiens, UniProt Q05655) | 10 µM | < 50 |
| Cyclin-dependent kinase 7 (CDK7, Homo sapiens, UniProt P50613) | 10 µM | < 50 |
| Cyclin-dependent kinase 2 (CDK2, Homo sapiens, UniProt P24941) | 1 µM | < 50 |
| Phosphatidylinositol 4-phosphate 5-kinase type-1 alpha (PIP5K1A, Homo sapiens, UniProt Q99755) | 10 µM | < 50 |

Series 2 — effect on: cell-free assay; technique: competition with immobilised ligand; tested at: 1 µM
SMILES: C[C@H](c1ccc(F)cc1)N(Cc1cccc(C(=O)O)c1)C(=O)c1cnc2ccccc2c1
| target | remaining binding [%] |
| --- | --- |
| Mitogen-activated protein kinase 7 (MAPK7, Homo sapiens, UniProt Q13164) | 78 |
| Tyrosine-protein kinase BTK (BTK, Homo sapiens, UniProt Q06187) | 95 |
| Proto-oncogene tyrosine-protein kinase receptor Ret (RET, Homo sapiens, UniProt P07949, V804L) | 85 |
| Testis-specific serine/threonine-protein kinase 1 (TSSK1B, Homo sapiens, UniProt Q9BXA7) | 91 |
| Serine/threonine-protein kinase NIM1 (NIM1K, Homo sapiens, UniProt Q8IY84) | 79 |
| Cyclin-dependent kinase 3 (CDK3, Homo sapiens, UniProt Q00526) | 98 |
| Misshapen-like kinase 1 (MINK1, Homo sapiens, UniProt Q8N4C8) | 100 |
| Tyrosine-protein kinase ABL1, non-phosphorylated (ABL1, Homo sapiens, UniProt P00519, Q252H) | 90 |
| Serine/threonine-protein kinase pim-3 (PIM3, Homo sapiens, UniProt Q86V86) | 100 |
| Serine/threonine-protein kinase TBK1 (TBK1, Homo sapiens, UniProt Q9UHD2) | 91 |
| Phosphatidylinositol 4,5-bisphosphate 3-kinase catalytic subunit gamma isoform (PIK3CG, Homo sapiens, UniProt P48736) | 100 |
| Ribosomal protein S6 kinase alpha-1, C-terminal kinase domain (RPS6KA1, Homo sapiens, UniProt Q15418) | 100 |
| Ribosomal protein S6 kinase alpha-5, N-terminal kinase domain (RPS6KA5, Homo sapiens, UniProt O75582) | 98 |
| Serine/threonine-protein kinase WNK2 (WNK2, Homo sapiens, UniProt Q9Y3S1) | 96 |
| Dual specificity protein kinase CLK3 (CLK3, Homo sapiens, UniProt P49761) | 100 |
| Serine/threonine-protein kinase D2 (PRKD2, Homo sapiens, UniProt Q9BZL6) | 100 |
| Interleukin-1 receptor-associated kinase 1 (IRAK1, Homo sapiens, UniProt P51617) | 89 |
| TGF-beta receptor type-2 (TGFBR2, Homo sapiens, UniProt P37173) | 100 |
| Mitogen-activated protein kinase kinase kinase 13 (MAP3K13, Homo sapiens, UniProt O43283) | 75 |
| NUAK family SNF1-like kinase 2 (NUAK2, Homo sapiens, UniProt Q9H093) | 100 |

Series 3 — species: mouse; sample: microsomes or S9; tested at: 2 µM; time: 0.5 h
| Structure (SMILES) | remaining compound [%] |
| --- | --- |
| CS(=O)(=O)c1ccc(Nc2ccc3sc(C(=O)O)cc3c2)c(F)c1 | > 99 |
| CC(C)Nc1nc(NCCO)nc(N2CCC(N3CCOC(C)C3)CC2)n1 (stereo not drawn) | 63.2 |
| CN(CCO)S(=O)(=O)c1ccc2c(c1)oc(=O)c1cc(S(=O)(=O)N(C)CCO)ccc12 | 27.6 |
| COc1cc(OC)cc(C2CC(=O)c3cc(OC)cc(OC)c32)c1 (stereo not drawn) | 53.6 |
| COc1ccccc1-n1c(=O)n(Cc2cccc(C)c2)c(=O)c2c(C)cc(C)nc21 | 0.0696 |
| Cn1ncc2c(-n3cc(Br)cn3)ncnc21 | 92.5 |
| O=C1CC(c2cccs2)Cc2nc3[nH]nc(O)c3cc21 (stereo not drawn) | 62 |
| COc1ccc(OCCc2c(O)nc(C)c(Br)c2O)cc1Br | 1.86 |
| O=C1CC(C(=O)Nc2ccccc2-c2ccccc2)c2ccccc21 (stereo not drawn) | 3.15 |
| O=C(O)CCc1nc2cc(-c3ccsc3)ccc2[nH]1 | 87.4 |
| NC(=O)C1CN(c2cc(=O)n3ccccc3n2)CCN1 (stereo not drawn) | 84 |

Series 4 — effect on: enzyme activity; action: inhibitor; tested at: 0.5 µM; relative to: control
Compound: Cc1nc(Nc2ncc(C(=O)Nc3c(C)cccc3Cl)s2)cc(N2CCN(CCO)CC2)n1
| target | remaining activity [%] |
| --- | --- |
| STE20/SPS1-related proline-alanine-rich protein kinase (STK39, Homo sapiens, UniProt Q9UEW8) | 92.8 |
| Serine/threonine-protein kinase OSR1 (OXSR1, Homo sapiens, UniProt O95747) | 99.9 |
| Inhibitor of nuclear factor kappa-B kinase subunit beta (IKBKB, Homo sapiens, UniProt O14920) | 94 |
| G protein-coupled receptor kinase 3 (GRK3, Homo sapiens, UniProt P35626) | 102 |
| Serine/threonine-protein kinase Nek2 (NEK2, Homo sapiens, UniProt P51955) | 103 |
| Cyclin-dependent kinase 4, with cyclin D1 (CDK4, Homo sapiens, UniProt P11802) | 94.4 |
| Cyclin-dependent kinase 5, with p25 (CDK5, Homo sapiens, UniProt Q00535) | 102 |
| cGMP-dependent protein kinase 1, isoform beta (PRKG1, Homo sapiens, UniProt Q13976) | 94.4 |
| Death-associated protein kinase 2 (DAPK2, Homo sapiens, UniProt Q9UIK4) | 91.2 |
| Tyrosine-protein kinase Lyn, isoform B (LYN, Homo sapiens, UniProt P07948) | 1.6 |
| Mitogen-activated protein kinase 9 (MAPK9, Homo sapiens, UniProt P45984) | 110 |

A few entries again (series 3):
| Structure (SMILES) | remaining compound [%] |
| --- | --- |
| NC(=O)C1CN(c2cc(=O)n3ccccc3n2)CCN1 (stereo not drawn) | 84 |
| Cn1ncc2c(-n3cc(Br)cn3)ncnc21 | 92.5 |
| COc1cc(OC)cc(C2CC(=O)c3cc(OC)cc(OC)c32)c1 (stereo not drawn) | 53.6 |
| O=C1CC(C(=O)Nc2ccccc2-c2ccccc2)c2ccccc21 (stereo not drawn) | 3.15 |
| O=C(O)CCc1nc2cc(-c3ccsc3)ccc2[nH]1 | 87.4 |
| CN(CCO)S(=O)(=O)c1ccc2c(c1)oc(=O)c1cc(S(=O)(=O)N(C)CCO)ccc12 | 27.6 |
| O=C1CC(c2cccs2)Cc2nc3[nH]nc(O)c3cc21 (stereo not drawn) | 62 |
